Assay results pooled from the literature.
A part holds a random share of what one study measured. Changes are numbered by the printed parent chain.

Set 1 — technique: DHFR PCA, deep sequencing; medium: yeast; added: (+)-ABA 0.0091 µM; baseline: wild-type fitted maximum; direction: higher = stronger binding; quantity: relative binding score
Target: ABI1, truncated, D143A, DHFR fusion (Arabidopsis thaliana)
Notes: methotrexate growth selection, single substitutions
Parent: PYL1, truncated, DHFR fusion (Arabidopsis thaliana); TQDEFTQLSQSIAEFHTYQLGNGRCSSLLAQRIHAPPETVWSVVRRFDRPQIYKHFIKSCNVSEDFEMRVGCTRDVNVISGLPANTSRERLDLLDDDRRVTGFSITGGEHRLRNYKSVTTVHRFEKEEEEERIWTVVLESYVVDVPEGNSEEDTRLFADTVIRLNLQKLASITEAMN
E131L: 39.4%
T154Y: -3.07%
V161R: -0.148%
L91H: 0.803%
K54W: 8.58%
R111C: 4.8%
E67M: 9.27%
I172F: -4.34%
M176S: 1.92%
V78P: 0.771%
I57T: 2.39%
N114I: 1.32%
E147S: 8.68%

Set 2 — technique: protein binding microarray; molecule type: double-stranded DNA, one strand shown; medium: in vitro; tested at: not given; baseline: not given; direction: higher = stronger binding; quantity: E-score
Target: Histone acetyltransferase KAT6A, winged helix 1, GST fusion (KAT6A, Homo sapiens, UniProt Q92794, residues 1-85)
Notes: 8-mer, flanks averaged, mean of 2 arrays, mostly near background
Residues (chain): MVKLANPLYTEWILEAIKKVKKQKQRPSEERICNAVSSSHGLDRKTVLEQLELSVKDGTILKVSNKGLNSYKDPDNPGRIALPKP
CGTATGAA: 0.116
GTGAACAA: -0.0469
ACGGGTAG: 0.294
ATTAATGA: 0.00357
CCTCATGC: -0.0978
GTTTGCCA: -0.0265
GTCTGCTA: -0.272
GGTATAGA: -0.0776
CTGAGATC: -0.0966
ATATGTAG: -0.218
CCTCCTCA: -0.0905
CGATGAGA: -0.106
CCTGGCGC: 0.29
CGAGGCGA: -0.118

Set 3 — target: CCND1, cyclin fold, Cln2 fusion (human); technique: yeast growth competition, sequencing; medium: yeast; notes: weak parent motif; baseline: not given; direction: higher = stronger binding; quantity: normalised enrichment score
Parent: SAMHD1 docking peptide (human); ASKSRVQLFKDDP
D12L: 0.114
D11V: 0.177
D11P: 0.391
R5M: 0.968
K3W: 0.516
S2Q: 0.361
L8P: 0.0889
L8F: 0.078
K3T: 0.505
V6W: -0.18
D11Q: 0.0656
D11T: 0.293

Mixed results
PhoQ, residues 284 288 289 292 302 303 AAQSYM  fold induction (PhoP, residues 12 14 15 18 19 TPWLV (Escherichia coli, UniProt P23836); Sort-seq, item: YFP reporter; E. coli; PhoQ-PhoP variant library, added: 10 µM Mg2+; baseline: high Mg2+ state, higher = stronger signaling): 1.07
